Measured values of several laboratories.
Values joined by “and” are separate records of one study, mostly repeats; a detail may differ. ± marks the error that the study gave.

| SMILES | tested on | test | system | conditions | how to read | measurement | result |
| --- | --- | --- | --- | --- | --- | --- | --- |
| O=C(O)CSc1nnc(Br)n1-c1ccc(C2CC2)c2ccccc12 |  |  | male mouse, acute hyperuricaemia model, serum | oral, 2 mg/kg, 4 h |  | serum uric acid | 549 ± 131 µM |
| CN(C(=O)n1cnc(-c2ccc[n+]([O-])c2)c1)C1CCCCC1 |  |  | mice, formalin paw test | 3 mg/kg, late phase, added: anandamide 5 mg/kg i.p. | direction not given | licking time score | 1.7 |
| CCOc1cc(/C=C2\CN(C(C)=O)CC3=C2OC(N)=C(C#N)C3c2ccc(O)c(OCC)c2)ccc1O (centres unmarked) |  |  | rat, DMBA-induced mammary tumour, mammary tumour | dose not given, day 0 |  | tumour volume | 0.24 ± 0.01 cm3 |
| COc1ccccc1[C@H](Cn1c(=O)n(C(C)(C)C(=O)O)c(=O)c2c(C)c(-c3ncco3)sc21)OC1CCOCC1 |  |  | human | 20 mg, post-treatment |  | blood LDL level | 147 ± 33.3 mg/dL |
| O=C(O)CNC(=O)Cc1ccccc1 |  |  | ventricular cardiomyocytes, C57BL/6 mouse | dose not given, 0.784 s |  | sarcomere length | 1.71 µm |
| O=P(O)(O)C(Cl)(Cl)P(=O)(O)O |  |  | Mus musculus, sham-operated, hippocampal fissure | concentration not given, day 7 | relative to: total area | Iba1-positive area | 0.45% and 1.2% and 0.35% |
| O=C(O)CCc1nccc2c3ccccc3n(Cc3ccc(Br)c4ccccc34)c12 |  |  | male mouse, acute hyperuricaemia model, serum | oral, 2 mg/kg, 4 h |  | serum uric acid | 336 ± 108 µM |
| C[C@H](Oc1ccc(Br)cc1-c1ccon1)C(=O)O |  | mean CMAP amplitude | human, tibialis anterior muscle | 1200 mg, SAD |  | difference from placebo | 0.137 mV |
| c1ccc(-c2n[nH]cc2-c2ccnc3ccccc23)nc1 |  | kinase binding, competitor, MIB/MS competition, measured: HRR25 | Candida albicans cell lysate | 1 µM | relative to: DMSO | log2 fold change | 0.587 |
| Cn1cc([C@H]2C[C@H]3CSC(N)=N[C@@]3(c3ccc(F)cc3F)CO2)cn1 |  | measured: Aβx-40 | wild-type mouse, brain | subcutaneous, 3 mg/kg, 6 h |  | brain Aβ40 level | 2.5 ng/g |
| CC(C)NCC(O)c1ccc(O)c(O)c1 (centres unmarked) |  |  | ventricular cardiomyocytes, C57BL/6 mouse | dose not given, 0.432 s |  | sarcomere length | 1.72 µm |
| C=CCn1c(=O)c2cnc(Nc3ccc(N4CCN(C)CC4)cc3)nc2n1-c1ccc2c(n1)[C@@](O)(CC)CC2 |  |  | LS-411N xenograft, BALB/c nude mice | oral, 80 mg/kg once daily x 19, day 18 |  | tumour volume difference | 407 ± 22 mm3 |
| N#Cc1ccc2c(c1)[C@H]1CCCN(C(=O)c3ccc4[nH]cnc4c3)[C@H]1C2 |  |  | human, plasma | 80 mg, day 15, 360 h | relative to: placebo and baseline | change in fasting glucose | 3.9% |
| O=C(O)/C=C/c1nccc2c3ccccc3n(Cc3ccc(C4CC4)c4ccccc34)c12 |  |  | mouse, acute hyperuricaemia model, serum | oral, 2 mg/kg, individual animal data |  | serum uric acid | 423 µM and 378 µM and 372 µM |
| COc1ncc(-c2nc3c(n2C(C)C)[C@H](c2ccc(Cl)cc2)N(c2cc(Cl)cn(C)c2=O)C3=O)c(OC)n1 |  | International Working Group criteria | human acute myeloid leukemia patients | oral, 45 mg, response CR, low-dose, recommended dose for expansion |  | best overall response | 7.4% |
| COc1ccc([C@@H](O)c2cc(-c3ncnc4cc(N5CCOCC5)ccc34)c(F)cc2Cl)nn1 |  | RECIST version 1.1 | patients, advanced solid tumours | 100 mg twice daily, added: avelumab | relative to: patients | disease control rate | 2% |

| SMILES | tested on | test | system | conditions | how to read | measurement | result |
| --- | --- | --- | --- | --- | --- | --- | --- |
| CC1(C)CCC(c2ccc(Cl)cc2)=C(CN2CCN(c3ccc(C(=O)NS(=O)(=O)c4ccc(N[C@H](CCN5CCOCC5)CSc5ccccc5)c(S(=O)(=O)C(F)(F)F)c4)cc3)CC2)C1 |  | cell kill | primary neoplastic T lymphocytes, dog 25 | 24 h, T-cell CLL |  | EC50 | 32 nM |
| O=S(=O)(NCCNC/C=C/c1ccc(Br)cc1)c1cccc2cnccc12 |  | embryonic development | mouse zygotes | 20 µM, 48 h post-hCG |  | two-cell embryos | 95% and 100% |
| CC(=O)O[C@H]1C(=O)[C@@]2(C)[C@H]([C@H](OC(=O)c3ccccc3)[C@]3(O)C[C@H](OC(=O)[C@H](O)[C@@H](NC(=O)c4ccccc4)c4ccccc4)C(C)=C1C3(C)C)[C@]1(OC(C)=O)CO[C@@H]1C[C@@H]2O |  |  | rats, DMBA-induced mammary tumours | dose not given, day 42 |  | tumour volume | 0.25 ± 0.006 cm3 |
| C[C@H]1C[C@H]2CSC(N)=N[C@@]2(c2nc(NC(=O)c3ccc(OC(F)F)cn3)cs2)CO1 |  | measured: total Aβ | healthy adults, plasma | 275 mg once daily, day 7 | relative to: placebo | percent change from baseline | -67.3% |
| CCc1cc2c(N3CCN(c4nncs4)CC3)ncnc2s1 | OCI-Ly1 |  |  | 1 µM, 120 h |  | viability | 118% |
| NC(=O)c1cnc2[nH]ccc2c1N[C@@H]1[C@@H]2CC3C[C@H]1C[C@@](O)(C3)C2 |  | CD8+ memory T cells, flow cytometry | Japanese humans, peripheral blood | 60 mg single dose | relative to: baseline | percent change | 0.62% |
| N#Cc1ccc2c(c1)[C@H]1CCCN(C(=O)c3ccc4[nH]cnc4c3)[C@H]1C2 |  |  | human, Phase II trial | oral, 80 mg once daily, day 28, adjusted mean, SE |  | HbA1c change from baseline | 0.03% |
| O=C(NS(=O)(=O)c1ccc(C(F)(F)F)cc1)c1cc2ccccc2n1Cc1ccc(Br)c2ccccc12 |  |  | male mouse, acute hyperuricaemia model, serum | oral, 2 mg/kg, 4 h |  | serum uric acid | 246 ± 110 µM |
| COc1ccc(-c2cncc(N[C@@H](C)c3cccc(NC(=O)c4cncc(C)c4)c3)n2)cc1OC |  | measured: rno-miR-490-3p | rat SU5416/hypoxia model, lung | dose not given | relative to: SU5416/hypoxia vehicle | fold change | 2.43 |
| CCCCC1(CCCC)CN(c2ccccc2)c2cc(SC)c(OCC(=O)N[C@@H](C(=O)NCC(=O)O)c3ccccc3)cc2S(=O)(=O)C1 |  | measured: 7α-hydroxy-4-cholesten-3-one | human, plasma | 15 mg once daily, day 8 |  | plasma C4 | 69.3 ng/mL |
| C=CC(=O)Nc1cc(Nc2nccc(Nc3cc(Cl)c(F)cc3C(C)(C)O)n2)c(OC)cc1N1CC[C@@H](N(C)C)C1 |  |  | mice, NCI-H2073 vs LXF 2478 xenografts | highest clinically relevant dose, unit not given | relative to: NCI-H2073 minus LXF 2478 | growth rate difference | -0.0037 |
| CCN1CCN(Cc2ccc(Nc3ncc(F)c(-c4cc(F)c5nc6n(c5c4)[C@H](C)CCC6)n3)nc2)CC1 |  |  | human advanced solid tumours | 50 mg, phase Ia monotherapy RECIST 1.1 |  | complete response | 0% |
| [Cl-].[Cl-].[Pt+2].[Ru+2].c1ccc(-c2nc3cc4ccccc4cc3nc2-c2ccccn2)nc1.c1cnc2c(c1)ccc1cccnc12.c1cnc2c(c1)ccc1cccnc12 |  | chloride substitution, UV-vis kinetics | aqueous buffer | pH 7.2, 35 °C, second substitution step, added: thiourea |  | activation free energy | 81 ± 3 kJ/mol |
| CSCCNc1nc(SCCC(F)(F)F)nc2c1ncn2[C@@H]1O[C@H](COP(=O)(O)OP(=O)(O)C(Cl)(Cl)P(=O)(O)O)[C@@H](O)[C@H]1O |  | ADP-induced platelet aggregation, light transmittance aggregometry | human patients, platelet-rich plasma | dose not given, 3 h, aggregation above 59%, added: ADP 20 µM | relative to: patients | high residual platelet reactivity | 81.6% |
| c1ccc2c(Cc3c[nH]c4ccccc34)c[nH]c2c1 | OCI-Ly1 |  |  | 0.1 µM, 120 h |  | viability | 177% |
| CC(=O)NCC(=O)NCC(=O)N[C@H](C(=O)N[C@@H](Cc1ccc(O)cc1)C(=O)N[C@@H](CO)C(=O)N[C@H]1CSSC[C@@H](C(=O)N[C@@H](CCCNC(=N)N)C(=O)N2CCC[C@H]2C(=O)N[C@@H](CCC(N)=O)C(=O)N[C@@H](CCCNC(=N)N)C(=O)NCC(=O)NCCC(=O)N[C@@H](CCCCNC(=O)CN(CC(=O)NCCCC[C@H](NC(=O)CCNC(=O)CNC(=O)[C@H](CCCNC(=N)N)NC(=O)[C@H](CCC(N)=O)NC(=O)[C@@H]2CCCN2C(=O)[C@H](CCCNC(=N)N)NC(=O)[C@@H]2CSSC[C@H](NC(=O)[C@H](CO)NC(=O)[C@H](Cc3ccc(O)cc3)NC(=O)[C@@H](NC(=O)CNC(=O)CNC(C)=O)[C@@H](C)O)C(=O)N[C@@H](Cc3c[nH]cn3)C(=O)N[C@@H](Cc3ccccc3)C(=O)NCC(=O)N[C@@H](C)C(=O)N[C@@H](CC(C)C)C(=O)N[C@@H]([C@@H](C)O)C(=O)N[C@@H](Cc3c[nH]c4ccccc34)C(=O)N[C@@H](C(C)C)C(=O)N2)C(N)=O)C(=O)CCN)C(N)=O)NC(=O)[C@H](C(C)C)NC(=O)[C@H](Cc2c[nH]c3ccccc23)NC(=O)[C@H]([C@@H](C)O)NC(=O)[C@H](CC(C)C)NC(=O)[C@H](C)NC(=O)CNC(=O)[C@H](Cc2ccccc2)NC(=O)[C@H](Cc2c[nH]cn2)NC1=O)[C@@H](C)O |  |  | healthy BALB/c mice | subcutaneous, 0.16 mg/kg, 8 d, single dose |  | haemoglobin | 144 g/L |

Repeated from above:
| SMILES | tested on | test | system | conditions | how to read | measurement | result |
| --- | --- | --- | --- | --- | --- | --- | --- |
| CCc1cc2c(N3CCN(c4nncs4)CC3)ncnc2s1 | OCI-Ly1 |  |  | 1 µM, 120 h |  | viability | 118% |
| NC(=O)c1cnc2[nH]ccc2c1N[C@@H]1[C@@H]2CC3C[C@H]1C[C@@](O)(C3)C2 |  | CD8+ memory T cells, flow cytometry | Japanese humans, peripheral blood | 60 mg single dose | relative to: baseline | percent change | 0.62% |
| N#Cc1ccc2c(c1)[C@H]1CCCN(C(=O)c3ccc4[nH]cnc4c3)[C@H]1C2 |  |  | human, Phase II trial | oral, 80 mg once daily, day 28, adjusted mean, SE |  | HbA1c change from baseline | 0.03% |
| O=C(NS(=O)(=O)c1ccc(C(F)(F)F)cc1)c1cc2ccccc2n1Cc1ccc(Br)c2ccccc12 |  |  | male mouse, acute hyperuricaemia model, serum | oral, 2 mg/kg, 4 h |  | serum uric acid | 246 ± 110 µM |
| COc1ccc(-c2cncc(N[C@@H](C)c3cccc(NC(=O)c4cncc(C)c4)c3)n2)cc1OC |  | measured: rno-miR-490-3p | rat SU5416/hypoxia model, lung | dose not given | relative to: SU5416/hypoxia vehicle | fold change | 2.43 |
